Experimental data of several laboratories.
± gives the spread as reported.
ALB: Albumin (ALB, Homo sapiens, UniProt P02768)
folP: Dihydropteroate synthase (folP, Bacteria, UniProt P0AC13)
Sequence of UniProt P0AC13 (whole entry, looked up): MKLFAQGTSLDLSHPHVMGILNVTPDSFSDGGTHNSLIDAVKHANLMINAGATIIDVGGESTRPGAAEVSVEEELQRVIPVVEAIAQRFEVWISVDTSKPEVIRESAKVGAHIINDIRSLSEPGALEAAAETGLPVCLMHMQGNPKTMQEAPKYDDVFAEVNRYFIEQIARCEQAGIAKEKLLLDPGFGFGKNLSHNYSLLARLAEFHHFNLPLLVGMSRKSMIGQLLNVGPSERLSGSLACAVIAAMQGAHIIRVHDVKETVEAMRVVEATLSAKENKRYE
Sequence of UniProt Q9NSA0 (whole entry, looked up): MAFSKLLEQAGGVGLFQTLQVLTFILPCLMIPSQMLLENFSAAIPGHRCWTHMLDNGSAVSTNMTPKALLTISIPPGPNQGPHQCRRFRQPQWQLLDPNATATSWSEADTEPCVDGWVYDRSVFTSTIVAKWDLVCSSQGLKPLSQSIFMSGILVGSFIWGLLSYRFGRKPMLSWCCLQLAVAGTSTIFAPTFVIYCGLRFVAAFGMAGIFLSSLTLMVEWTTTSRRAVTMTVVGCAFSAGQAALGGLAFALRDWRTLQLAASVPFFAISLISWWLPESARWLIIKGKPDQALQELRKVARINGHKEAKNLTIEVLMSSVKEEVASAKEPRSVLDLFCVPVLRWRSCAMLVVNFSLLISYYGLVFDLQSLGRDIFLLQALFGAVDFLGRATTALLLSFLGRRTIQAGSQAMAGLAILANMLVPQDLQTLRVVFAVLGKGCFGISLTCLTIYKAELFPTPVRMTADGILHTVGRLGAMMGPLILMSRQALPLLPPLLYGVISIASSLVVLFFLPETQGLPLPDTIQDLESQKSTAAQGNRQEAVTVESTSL
Sequence of UniProt P69687 (whole entry, looked up): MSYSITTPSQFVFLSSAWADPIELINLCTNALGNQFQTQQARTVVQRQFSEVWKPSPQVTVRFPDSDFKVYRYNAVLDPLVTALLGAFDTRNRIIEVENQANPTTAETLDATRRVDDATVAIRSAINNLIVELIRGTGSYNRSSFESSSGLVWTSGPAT
Sequence of UniProt Q13526 (whole entry, looked up): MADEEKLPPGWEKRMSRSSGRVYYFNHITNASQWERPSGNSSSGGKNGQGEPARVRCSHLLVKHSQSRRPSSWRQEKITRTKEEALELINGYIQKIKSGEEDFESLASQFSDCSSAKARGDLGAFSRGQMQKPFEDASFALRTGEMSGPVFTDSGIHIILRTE
Sequence of UniProt Q15835 (whole entry, looked up): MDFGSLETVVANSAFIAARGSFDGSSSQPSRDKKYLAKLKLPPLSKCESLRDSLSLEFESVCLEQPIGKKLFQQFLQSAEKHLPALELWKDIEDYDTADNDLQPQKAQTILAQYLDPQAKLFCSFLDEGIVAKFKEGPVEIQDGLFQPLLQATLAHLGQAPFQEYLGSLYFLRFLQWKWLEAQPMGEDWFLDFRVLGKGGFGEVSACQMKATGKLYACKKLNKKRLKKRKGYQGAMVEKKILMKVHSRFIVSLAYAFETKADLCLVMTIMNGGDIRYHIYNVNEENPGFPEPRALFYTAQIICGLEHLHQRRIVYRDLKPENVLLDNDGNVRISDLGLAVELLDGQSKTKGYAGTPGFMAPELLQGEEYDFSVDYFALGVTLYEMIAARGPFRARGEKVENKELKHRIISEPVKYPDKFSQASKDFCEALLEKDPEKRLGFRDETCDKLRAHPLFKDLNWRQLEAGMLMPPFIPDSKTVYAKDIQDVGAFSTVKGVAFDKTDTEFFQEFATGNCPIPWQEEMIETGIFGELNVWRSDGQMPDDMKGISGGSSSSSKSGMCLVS
Sequence of UniProt Q9UJS0 (whole entry, looked up): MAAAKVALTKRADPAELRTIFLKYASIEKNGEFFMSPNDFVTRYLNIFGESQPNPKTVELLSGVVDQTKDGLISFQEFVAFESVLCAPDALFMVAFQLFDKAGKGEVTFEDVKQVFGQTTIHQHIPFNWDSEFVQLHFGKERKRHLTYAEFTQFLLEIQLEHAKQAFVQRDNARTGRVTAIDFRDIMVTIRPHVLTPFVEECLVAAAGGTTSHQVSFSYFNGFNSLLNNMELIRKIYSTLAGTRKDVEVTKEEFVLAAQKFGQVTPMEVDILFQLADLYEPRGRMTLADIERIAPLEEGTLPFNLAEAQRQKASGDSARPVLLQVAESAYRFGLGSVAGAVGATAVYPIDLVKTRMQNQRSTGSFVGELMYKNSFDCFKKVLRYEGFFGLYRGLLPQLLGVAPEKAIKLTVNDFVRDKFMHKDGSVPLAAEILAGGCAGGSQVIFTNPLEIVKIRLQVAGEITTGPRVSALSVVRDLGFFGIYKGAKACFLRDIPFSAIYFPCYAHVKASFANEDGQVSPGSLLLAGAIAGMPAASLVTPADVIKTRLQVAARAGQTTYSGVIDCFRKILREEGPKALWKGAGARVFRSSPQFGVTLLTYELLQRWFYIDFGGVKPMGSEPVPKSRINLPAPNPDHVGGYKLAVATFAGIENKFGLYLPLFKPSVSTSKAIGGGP
Sequence of UniProt P22413 (whole entry, looked up): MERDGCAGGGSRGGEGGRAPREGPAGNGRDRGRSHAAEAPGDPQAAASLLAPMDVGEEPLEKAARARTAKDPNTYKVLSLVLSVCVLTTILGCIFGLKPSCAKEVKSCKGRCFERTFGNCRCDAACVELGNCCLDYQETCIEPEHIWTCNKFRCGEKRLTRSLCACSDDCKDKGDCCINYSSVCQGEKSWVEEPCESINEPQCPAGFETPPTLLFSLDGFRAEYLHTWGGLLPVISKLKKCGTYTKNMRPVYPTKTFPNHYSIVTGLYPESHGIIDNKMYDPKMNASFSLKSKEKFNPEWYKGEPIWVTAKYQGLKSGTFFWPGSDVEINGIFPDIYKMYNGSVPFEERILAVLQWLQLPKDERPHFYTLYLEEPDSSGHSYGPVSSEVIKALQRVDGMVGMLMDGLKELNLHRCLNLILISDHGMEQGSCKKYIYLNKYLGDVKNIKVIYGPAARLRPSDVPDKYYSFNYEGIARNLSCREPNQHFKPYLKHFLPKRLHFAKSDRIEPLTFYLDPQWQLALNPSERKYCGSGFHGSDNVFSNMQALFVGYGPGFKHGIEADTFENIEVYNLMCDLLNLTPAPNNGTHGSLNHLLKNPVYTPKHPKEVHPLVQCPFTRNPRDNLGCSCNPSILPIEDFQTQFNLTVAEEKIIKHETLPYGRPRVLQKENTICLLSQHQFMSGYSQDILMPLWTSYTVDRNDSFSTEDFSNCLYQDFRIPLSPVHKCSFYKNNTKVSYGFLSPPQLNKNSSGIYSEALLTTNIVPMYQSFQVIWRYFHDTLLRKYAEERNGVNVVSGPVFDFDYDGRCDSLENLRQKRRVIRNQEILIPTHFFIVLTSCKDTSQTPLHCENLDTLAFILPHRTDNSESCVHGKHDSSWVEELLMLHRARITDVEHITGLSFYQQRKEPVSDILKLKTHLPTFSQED
Sequence of UniProt P28566 (whole entry, looked up): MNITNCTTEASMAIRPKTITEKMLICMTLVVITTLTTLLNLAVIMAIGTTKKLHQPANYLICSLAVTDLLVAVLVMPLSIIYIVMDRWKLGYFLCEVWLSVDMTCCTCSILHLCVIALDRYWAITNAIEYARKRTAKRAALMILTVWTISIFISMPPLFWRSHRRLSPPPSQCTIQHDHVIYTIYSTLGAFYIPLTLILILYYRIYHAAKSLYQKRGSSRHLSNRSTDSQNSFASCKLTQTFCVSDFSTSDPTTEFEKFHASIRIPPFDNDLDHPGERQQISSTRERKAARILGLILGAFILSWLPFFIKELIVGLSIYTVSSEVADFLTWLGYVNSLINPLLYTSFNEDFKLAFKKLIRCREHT
Sequence of UniProt Q16881 (whole entry, looked up): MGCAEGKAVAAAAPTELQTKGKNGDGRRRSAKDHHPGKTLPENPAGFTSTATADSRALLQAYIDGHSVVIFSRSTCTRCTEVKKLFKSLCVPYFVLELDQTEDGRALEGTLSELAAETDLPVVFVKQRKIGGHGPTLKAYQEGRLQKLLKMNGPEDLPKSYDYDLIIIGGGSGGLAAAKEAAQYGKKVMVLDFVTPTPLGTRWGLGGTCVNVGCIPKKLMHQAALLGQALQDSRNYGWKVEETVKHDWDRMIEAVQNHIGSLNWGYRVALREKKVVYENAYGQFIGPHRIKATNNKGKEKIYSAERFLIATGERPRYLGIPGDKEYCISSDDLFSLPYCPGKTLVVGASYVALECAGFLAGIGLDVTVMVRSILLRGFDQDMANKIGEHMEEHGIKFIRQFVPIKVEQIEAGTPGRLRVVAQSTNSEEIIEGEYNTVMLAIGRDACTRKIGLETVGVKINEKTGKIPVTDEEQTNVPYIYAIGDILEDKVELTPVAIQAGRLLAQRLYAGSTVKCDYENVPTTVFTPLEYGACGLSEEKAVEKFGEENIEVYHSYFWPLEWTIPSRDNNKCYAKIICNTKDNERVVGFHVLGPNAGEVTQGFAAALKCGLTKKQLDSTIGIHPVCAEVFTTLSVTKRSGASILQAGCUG

Compound	target or system	test	test system	conditions	how to read	measurement	value
COC1CN([C@H]2CC[C@H]([C@@]3(C)Oc4c(Cl)cc(C(=O)NCc5c(SC)cc(C)[nH]c5=O)c(C)c4O3)CC2)C1		RNA-seq, item: RANBP17	human, whole blood	dose not given, 24 h	baseline: pretreatment baseline	log2 fold change	2.62
CCCCCCCCCCCCOc1c(O)cc(C(=O)OC2Cc3c(O)cc(O)cc3OC2c2cc(O)c(O)c(O)c2)cc1O (stereo not shown)	ALB	tryptophan fluorescence quenching				Kd	1920 nM
CC(C(=O)O)c1n[nH]c2nc(N)[nH]c(=O)c2c1=O (stereo not shown)	folP	binding, SPR				Kd	5.83 nM
C=CC(=O)Nc1cccc(Cn2ncc3cnc(Nc4cnn(CCOC)c4)nc32)c1	human MET	KINOMEscan		100 nM	baseline: control	binding	57%
CC(C)[C@H](NC(=O)[C@@H]1CCCN1C(=O)[C@@H](NC(=O)[C@H](CCCNC(=N)N)NC(=O)[C@@H]1CCCN1C(=O)[C@@H](NC(=O)OCC1c2ccccc2-c2ccccc21)C(C)C)[C@@H](C)OP(=O)(O)O)C(=O)NCC(=O)NCC(=O)NCC(=O)N[C@@H](CCCCN)C(N)=O	Peptidyl-prolyl cis-trans isomerase NIMA-interacting 1, WW domain (PIN1, Homo sapiens, UniProt Q13526)	binding, competitive plate		added: 200 pM PIN1-HRP conjugate		Kd	66000 ± 10000 nM
Cc1c[nH]c2nccc(-c3ccc(C(=O)N[C@@H]4c5c(F)cc(C(F)F)cc5C[C@@H]4O)cn3)c12	GRK1 (Homo sapiens, UniProt Q15835)	binding, competition with immobilised ligand				Kd	650 nM
CCCC[C@@H]1NC(=O)[C@H](Cc2ccc(O)cc2)NC(=O)[C@@H]2CCCN2C(=O)[C@H](CC(=O)O)NC(=O)[C@H](C)NC(=O)[C@H](Cc2ccccc2)NC(=O)[C@@H]2CSCCC(=O)N3CN(CN(C3)C(=O)CCSC[C@@H](C(=O)N[C@@H](C)C(N)=O)NC1=O)C(=O)CCSC[C@H](NC(C)=O)C(=O)N[C@@H](CC(C)(C)C)C(=O)N1CCC[C@H]1C(=O)N[C@@H](CCC(=O)O)C(=O)N[C@H](CCCCNC(=O)CCc1cn(CCOCCOCCOCCN(CCOCCOCCOCCC(=O)N[C@H]3CSCCC(=O)N4CN5CN(C4)C(=O)CCSC[C@H](NC(=O)[C@@H](CC(=O)O)NC(=O)[C@H](Cc4cccc6ccccc46)NC(=O)[C@@H]4CCCN4C3=O)C(=O)N[C@@H](CCSC)C(=O)N[C@@H](CCCCNC(=N)N)C(=O)N[C@@H](CC(=O)O)C(=O)N[C@@H](Cc3c[nH]c4ccccc34)C(=O)N[C@@H](CO)C(=O)N[C@@H]([C@@H](C)O)C(=O)N3CCC[C@H]3C(=O)N3C[C@H](O)C[C@H]3C(=O)N[C@@H](Cc3c[nH]c4ccccc34)C(=O)N[C@H](C(N)=O)CSCCC5=O)CCOCCOCCOCCn3cc(CCC(=O)NCCCC[C@H]4NC(=O)[C@H](CCC(=O)O)NC(=O)[C@@H]5CCCN5C(=O)[C@H](CC(C)(C)C)NC(=O)[C@@H](NC(C)=O)CSCCC(=O)N5CN6CN(C5)C(=O)CCSC[C@H](NC(=O)[C@H](Cc5ccc(O)cc5)NC(=O)[C@@H]5CCCN5C4=O)C(=O)N[C@@H](Cc4ccccc4)C(=O)N[C@@H](C)C(=O)N[C@@H](CC(=O)O)C(=O)N4CCC[C@H]4C(=O)N[C@@H](Cc4ccc(O)cc4)C(=O)N[C@@H](CCCC)C(=O)N[C@H](C(=O)N[C@@H](C)C(N)=O)CSCCC6=O)nn3)nn1)C(=O)N1CCC[C@H]1C(=O)N[C@@H](Cc1ccc(O)cc1)C(=O)N2	Cell adhesion molecule 4 (CADM4, Homo sapiens, UniProt Q8NFZ8)	SPR				Kd	> 5000 nM
CCc1nc2cc3ccccc3cc2cc1C(=O)N[C@@H](CCCCN)C(=O)N[C@@H](C/C=C/C[C@H](NC(=O)[C@H](CCCCN)NC(=O)c1cc2cc3ccccc3cc2nc1CC)C(=O)N1CCC[C@H]1C(=O)NCCCN)C(=O)N1CCC[C@H]1C(=O)NCCCN	(CAG)10 RNA	SPR				Kd	228 nM
O=C(O)CCC(=O)C(=O)O	Uncharacterized protein (Pelagibacter ubique, UniProt Q4FKX4)	isothermal titration calorimetry	Candidatus Pelagibacter ubique	one-set-of-sites model		Kd	7.7 ± 1.4 nM
CC(CC(=O)O)c1n[nH]c2nc(N)[nH]c(=O)c2c1=O (stereo not shown)	folP	binding, SPR				Kd	47.2 nM
Cc1ncsc1-c1ccc(C(C)NC(=O)C2CC(O)CN2C(=O)C(NC(=O)CCCCCCCCCCN2CCCC(Nc3ncc(Cl)c(Nc4ccccc4S(=O)(=O)C(C)C)n3)C2)C(C)(C)C)cc1 (stereo not shown)	22Rv1	RNA-seq, item: SLC20A2 mRNA		concentration not given	baseline: DMSO	log2 fold change	-1.04
Cn1ncc2cc(-c3cncc(Cl)c3N3CCC4(CCNC4=O)CC3)ccc21	MED20 human	SILAC competition	LS174T-L5 lysate			Kd	9 nM
O=c1cc(-c2ccccc2)oc2c(OCCCCN3CCCC3)c(OCc3ccccc3)cc(O)c12	TXNRD1 (Homo sapiens, UniProt Q16881)	binding, MST				Kd	8800 nM
CN1CCN(c2ccc3[nH]c(-c4ccc5[nH]c(-c6ccc(OCCCCNC(=O)c7cccc8c7C(=O)OC87c8ccc(N(C)C)cc8[Si](C)(C)c8cc(N(C)C)ccc87)cc6)nc5c4)nc3c2)CC1	hairpin DNA	binding, fluorescence titration	PBS	1 h, room temperature		Kd	5200 ± 900 nM
Nc1nc2[nH]nc(CC(=O)O)c(=O)c2c(=O)[nH]1	folP	binding, SPR				Kd	1.59 nM
CCc1nc2cc3ccccc3cc2cc1C(=O)N1CCC[C@H]1C(=O)N[C@@H](C/C=C\C[C@H](NC(=O)[C@@H]1CCCN1C(=O)c1cc2cc3ccccc3cc2nc1CC)C(=O)N[C@@H](CCCCN)C(=O)NCCCN)C(=O)N[C@@H](CCCCN)C(=O)NCCCN	(CAG)10 RNA	SPR				Kd	46 nM
COc1cccc2c(N3CCC(CCP(=O)(O)O)CC3)ncnc12	ENPP1 (Homo sapiens, UniProt P22413)	binding, SPR				Kd	0.397 nM
COc1ccc(C(=O)NCCNC(=O)c2cc(-c3ccccc3)nc3ccccc23)cc1OC	VSIR (Homo sapiens, UniProt Q9H7M9)	binding, MST				Kd	470 nM
C=CC(=O)N1C[C@H](C)N(c2nc(OC[C@@]34CCCN3C[C@H](F)C4)nc3c(F)c(-c4ccc(F)c5sc(N)c(C#N)c45)c(C(F)(F)F)cc23)C[C@H]1C	GTPase KRas, GDP-bound (KRAS, Homo sapiens, UniProt P01116, Q61H)	SPR				Kd	1.39 ± 0.21 nM
C[C@H](CCC(=O)NCCS(=O)(=O)O)[C@H]1CC[C@H]2[C@@H]3CC[C@@H]4C[C@H](OS(=O)(=O)O)CC[C@]4(C)[C@H]3CC[C@]12C	SLC25A13 (Homo sapiens, UniProt Q9UJS0)	isothermal titration calorimetry	vesicles			Kd	109000 ± 1e+09 nM
CC1=CC(/C=C/c2ccc3c(ccn3C)c2)=[N+]2C1=Cc1cccn1[B-]2(F)F	ALB	binding, fluorescence titration	PBS	30 min, pH 7.08, added: BODIPY dye		Kd	5800 ± 800 nM
O=C(NS(=O)(=O)c1cccs1)c1cc2ccccc2n1Cc1ccc(Br)c2ccccc12	SLC22A11 (Homo sapiens, UniProt Q9NSA0)	binding, surface plasmon resonance				Kd	711 nM
CNc1cc(C)c(C(N)=O)cn1	Nicotinamide N-methyltransferase, SAM-bound (Rattus norvegicus, UniProt A0ABK0M0V0)	substrate, SPR		37 °C, added: SAM		Kd	3980 nM
CCNCc1cc(/C=N/Nc2ccc(C(=O)O)cc2)ccc1OS(=O)(=O)c1ccc(C)cc1	HTR1E (Homo sapiens, UniProt P28566)	dynamic mass redistribution	HEK293 expressing HTR1E			Kd	2.1 ± 0.2 nM
Cn1nc(CC(=O)O)c(=O)c2c(=O)[nH]c(N)nc21	folP	binding, SPR				Kd	3.21 nM
CCSC(SCC)c1ccc(OCCNS(=O)(=O)c2ccc(C)cc2)c(Cl)c1	CP (Tobacco mosaic virus, UniProt P69687)	binding, MST				Kd	66100 nM
NCCCC[C@H](NC(=O)[C@H](C/C=C\C[C@H](NC(=O)[C@@H]1CCCN1)C(=O)N[C@@H](CCCCN)C(=O)NCCCN)NC(=O)[C@@H]1CCCN1)C(=O)NCCCN	(CAG)10 RNA	SPR				Kd	145 nM
CC(C)C[C@H](NC(=O)[C@H](CC(=O)O)NC(=O)[C@@H](NC(=O)[C@H](CC(=O)O)NC(=O)CNC(=O)[C@H](CCC(=O)O)NC(=O)[C@H](CC(=O)O)NC(=O)CNC(=O)CCCC[C@@H]1SC[C@@H]2NC(=O)N[C@@H]21)[C@@H](C)O)C(=O)N[C@@H](Cc1ccc(OP(=O)(O)O)cc1)C(=O)N[C@@H](CC(=O)O)C(=O)N[C@@H](Cc1ccc(OP(=O)(O)O)cc1)C(=O)N[C@@H](Cc1ccc(OP(=O)(O)O)cc1)C(=O)N1CCC[C@H]1C(=O)N[C@@H](CCC(=O)O)C(=O)N[C@@H](CCC(=O)O)C(=O)N[C@@H](CC(=O)O)C(=O)N[C@H](C(N)=O)[C@@H](C)O	Prothrombin, thrombin (F2, Homo sapiens, UniProt P00734, S568A)	binding, biolayer interferometry		pH 7.4		Kd	1030 ± 50 nM

For quick reference, copied from above:
Compound	target or system	test	test system	conditions	how to read	measurement	value
CC(C)[C@H](NC(=O)[C@@H]1CCCN1C(=O)[C@@H](NC(=O)[C@H](CCCNC(=N)N)NC(=O)[C@@H]1CCCN1C(=O)[C@@H](NC(=O)OCC1c2ccccc2-c2ccccc21)C(C)C)[C@@H](C)OP(=O)(O)O)C(=O)NCC(=O)NCC(=O)NCC(=O)N[C@@H](CCCCN)C(N)=O	Peptidyl-prolyl cis-trans isomerase NIMA-interacting 1, WW domain (PIN1, Homo sapiens, UniProt Q13526)	binding, competitive plate		added: 200 pM PIN1-HRP conjugate		Kd	66000 ± 10000 nM
O=C(NS(=O)(=O)c1cccs1)c1cc2ccccc2n1Cc1ccc(Br)c2ccccc12	SLC22A11 (Homo sapiens, UniProt Q9NSA0)	binding, surface plasmon resonance				Kd	711 nM
C[C@H](CCC(=O)NCCS(=O)(=O)O)[C@H]1CC[C@H]2[C@@H]3CC[C@@H]4C[C@H](OS(=O)(=O)O)CC[C@]4(C)[C@H]3CC[C@]12C	SLC25A13 (Homo sapiens, UniProt Q9UJS0)	isothermal titration calorimetry	vesicles			Kd	109000 ± 1e+09 nM
CC(C(=O)O)c1n[nH]c2nc(N)[nH]c(=O)c2c1=O (stereo not shown)	folP	binding, SPR				Kd	5.83 nM
Cc1ncsc1-c1ccc(C(C)NC(=O)C2CC(O)CN2C(=O)C(NC(=O)CCCCCCCCCCN2CCCC(Nc3ncc(Cl)c(Nc4ccccc4S(=O)(=O)C(C)C)n3)C2)C(C)(C)C)cc1 (stereo not shown)	22Rv1	RNA-seq, item: SLC20A2 mRNA		concentration not given	baseline: DMSO	log2 fold change	-1.04
